Measured values gathered from unrelated publications.
Numbered parts are unrelated; each lists some results of a single study.
UniProt P10721, sequence (whole entry, unmodified, looked up): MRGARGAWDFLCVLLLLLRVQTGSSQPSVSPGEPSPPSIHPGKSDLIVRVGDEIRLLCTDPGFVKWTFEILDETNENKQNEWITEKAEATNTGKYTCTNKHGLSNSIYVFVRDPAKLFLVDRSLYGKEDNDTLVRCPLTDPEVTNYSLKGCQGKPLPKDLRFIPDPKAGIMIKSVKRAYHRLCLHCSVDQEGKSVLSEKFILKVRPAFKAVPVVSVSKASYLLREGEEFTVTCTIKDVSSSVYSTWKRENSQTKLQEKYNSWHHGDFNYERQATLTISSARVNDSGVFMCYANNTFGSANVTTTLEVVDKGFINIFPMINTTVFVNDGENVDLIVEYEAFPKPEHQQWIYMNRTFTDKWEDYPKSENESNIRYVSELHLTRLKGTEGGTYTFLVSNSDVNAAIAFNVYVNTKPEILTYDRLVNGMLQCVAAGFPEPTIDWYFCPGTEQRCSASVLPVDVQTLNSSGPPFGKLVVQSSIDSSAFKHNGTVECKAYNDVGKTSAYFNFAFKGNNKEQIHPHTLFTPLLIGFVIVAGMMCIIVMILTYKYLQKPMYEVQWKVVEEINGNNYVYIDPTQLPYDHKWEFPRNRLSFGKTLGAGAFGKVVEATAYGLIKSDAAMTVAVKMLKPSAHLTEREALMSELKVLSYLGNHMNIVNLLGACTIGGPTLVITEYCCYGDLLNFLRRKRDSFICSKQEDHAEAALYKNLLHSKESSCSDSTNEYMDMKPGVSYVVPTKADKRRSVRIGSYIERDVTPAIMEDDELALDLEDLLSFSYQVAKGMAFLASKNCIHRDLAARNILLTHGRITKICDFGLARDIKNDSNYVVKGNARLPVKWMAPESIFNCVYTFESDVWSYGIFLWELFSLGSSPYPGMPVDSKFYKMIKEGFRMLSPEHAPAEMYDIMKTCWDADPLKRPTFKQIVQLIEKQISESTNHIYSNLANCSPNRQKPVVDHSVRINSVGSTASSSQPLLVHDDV
UniProt Q9NZJ5, sequence (whole entry, looked up): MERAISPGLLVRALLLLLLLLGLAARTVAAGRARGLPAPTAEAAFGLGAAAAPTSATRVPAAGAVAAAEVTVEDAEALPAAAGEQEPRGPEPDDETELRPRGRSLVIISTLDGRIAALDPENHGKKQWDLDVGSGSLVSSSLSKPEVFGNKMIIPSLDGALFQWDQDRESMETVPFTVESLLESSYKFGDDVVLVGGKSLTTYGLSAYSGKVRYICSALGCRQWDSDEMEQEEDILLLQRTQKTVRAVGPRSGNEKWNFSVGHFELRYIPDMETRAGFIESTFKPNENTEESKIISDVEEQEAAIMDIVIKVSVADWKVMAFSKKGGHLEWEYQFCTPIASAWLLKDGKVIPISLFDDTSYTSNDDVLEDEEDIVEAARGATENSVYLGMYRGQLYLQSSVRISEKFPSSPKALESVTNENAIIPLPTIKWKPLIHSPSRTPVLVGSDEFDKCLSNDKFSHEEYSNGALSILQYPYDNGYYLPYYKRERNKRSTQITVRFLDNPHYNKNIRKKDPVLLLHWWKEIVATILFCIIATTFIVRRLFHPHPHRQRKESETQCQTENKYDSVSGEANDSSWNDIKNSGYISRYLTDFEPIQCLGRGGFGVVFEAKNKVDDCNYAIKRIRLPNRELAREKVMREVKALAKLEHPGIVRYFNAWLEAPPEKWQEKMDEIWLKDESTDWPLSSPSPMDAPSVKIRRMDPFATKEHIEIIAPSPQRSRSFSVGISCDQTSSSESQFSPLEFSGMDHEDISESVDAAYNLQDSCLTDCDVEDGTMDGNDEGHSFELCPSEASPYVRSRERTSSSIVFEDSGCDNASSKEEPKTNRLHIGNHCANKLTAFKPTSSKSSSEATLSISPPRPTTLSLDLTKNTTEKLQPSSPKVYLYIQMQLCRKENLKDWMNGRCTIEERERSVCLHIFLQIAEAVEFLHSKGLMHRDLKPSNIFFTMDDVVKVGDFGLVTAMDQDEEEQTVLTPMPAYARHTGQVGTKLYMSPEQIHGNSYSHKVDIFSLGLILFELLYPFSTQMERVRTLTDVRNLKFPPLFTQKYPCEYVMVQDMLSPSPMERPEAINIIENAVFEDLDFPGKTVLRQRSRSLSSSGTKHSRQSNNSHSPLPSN
UniProt P54762, sequence (whole entry, looked up): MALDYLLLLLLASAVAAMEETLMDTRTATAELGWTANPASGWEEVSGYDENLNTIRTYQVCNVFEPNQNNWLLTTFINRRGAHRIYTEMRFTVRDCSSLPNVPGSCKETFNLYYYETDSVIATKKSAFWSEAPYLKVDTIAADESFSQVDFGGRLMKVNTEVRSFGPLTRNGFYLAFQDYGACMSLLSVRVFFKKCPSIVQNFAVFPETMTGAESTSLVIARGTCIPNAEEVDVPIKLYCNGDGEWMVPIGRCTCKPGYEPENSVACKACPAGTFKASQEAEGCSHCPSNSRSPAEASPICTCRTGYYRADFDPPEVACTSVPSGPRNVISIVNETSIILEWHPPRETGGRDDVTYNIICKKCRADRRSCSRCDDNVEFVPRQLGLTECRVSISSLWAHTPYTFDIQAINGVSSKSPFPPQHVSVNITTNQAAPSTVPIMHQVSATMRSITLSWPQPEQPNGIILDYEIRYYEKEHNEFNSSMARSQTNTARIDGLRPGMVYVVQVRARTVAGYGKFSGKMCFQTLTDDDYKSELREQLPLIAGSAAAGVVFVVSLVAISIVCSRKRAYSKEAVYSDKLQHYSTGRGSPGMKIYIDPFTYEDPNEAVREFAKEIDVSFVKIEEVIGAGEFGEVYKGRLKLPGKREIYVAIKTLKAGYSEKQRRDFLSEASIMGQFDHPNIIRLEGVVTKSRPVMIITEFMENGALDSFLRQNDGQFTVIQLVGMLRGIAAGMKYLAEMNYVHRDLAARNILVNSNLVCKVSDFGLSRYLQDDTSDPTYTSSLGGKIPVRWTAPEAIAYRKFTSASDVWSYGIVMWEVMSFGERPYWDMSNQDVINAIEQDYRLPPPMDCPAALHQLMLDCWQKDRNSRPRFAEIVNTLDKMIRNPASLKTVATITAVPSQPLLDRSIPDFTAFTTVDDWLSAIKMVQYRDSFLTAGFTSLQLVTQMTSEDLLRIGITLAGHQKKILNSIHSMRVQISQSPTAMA
UniProt Q13546, sequence (whole entry, looked up): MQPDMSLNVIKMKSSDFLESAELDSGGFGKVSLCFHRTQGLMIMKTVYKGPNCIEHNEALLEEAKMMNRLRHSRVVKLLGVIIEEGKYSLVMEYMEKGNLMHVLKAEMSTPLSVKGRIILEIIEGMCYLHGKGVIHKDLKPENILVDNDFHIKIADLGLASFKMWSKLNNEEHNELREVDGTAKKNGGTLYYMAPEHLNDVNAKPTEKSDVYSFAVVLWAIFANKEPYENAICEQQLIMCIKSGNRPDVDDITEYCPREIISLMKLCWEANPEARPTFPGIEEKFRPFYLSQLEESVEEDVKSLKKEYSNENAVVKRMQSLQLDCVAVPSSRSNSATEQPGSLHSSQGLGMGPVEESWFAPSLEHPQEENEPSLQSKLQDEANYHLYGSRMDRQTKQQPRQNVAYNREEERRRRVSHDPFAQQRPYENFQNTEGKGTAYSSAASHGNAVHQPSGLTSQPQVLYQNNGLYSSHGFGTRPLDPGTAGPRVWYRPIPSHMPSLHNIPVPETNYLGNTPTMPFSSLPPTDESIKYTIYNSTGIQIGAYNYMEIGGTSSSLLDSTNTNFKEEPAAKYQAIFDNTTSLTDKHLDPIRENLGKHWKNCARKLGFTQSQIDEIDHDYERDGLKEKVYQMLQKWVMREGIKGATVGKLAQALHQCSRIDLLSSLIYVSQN

Series 1
Target: Serine/threonine-protein kinase PAK 5 (PAK5, Homo sapiens, UniProt Q9P286)
UniProt Q9P286, sequence (whole entry, looked up): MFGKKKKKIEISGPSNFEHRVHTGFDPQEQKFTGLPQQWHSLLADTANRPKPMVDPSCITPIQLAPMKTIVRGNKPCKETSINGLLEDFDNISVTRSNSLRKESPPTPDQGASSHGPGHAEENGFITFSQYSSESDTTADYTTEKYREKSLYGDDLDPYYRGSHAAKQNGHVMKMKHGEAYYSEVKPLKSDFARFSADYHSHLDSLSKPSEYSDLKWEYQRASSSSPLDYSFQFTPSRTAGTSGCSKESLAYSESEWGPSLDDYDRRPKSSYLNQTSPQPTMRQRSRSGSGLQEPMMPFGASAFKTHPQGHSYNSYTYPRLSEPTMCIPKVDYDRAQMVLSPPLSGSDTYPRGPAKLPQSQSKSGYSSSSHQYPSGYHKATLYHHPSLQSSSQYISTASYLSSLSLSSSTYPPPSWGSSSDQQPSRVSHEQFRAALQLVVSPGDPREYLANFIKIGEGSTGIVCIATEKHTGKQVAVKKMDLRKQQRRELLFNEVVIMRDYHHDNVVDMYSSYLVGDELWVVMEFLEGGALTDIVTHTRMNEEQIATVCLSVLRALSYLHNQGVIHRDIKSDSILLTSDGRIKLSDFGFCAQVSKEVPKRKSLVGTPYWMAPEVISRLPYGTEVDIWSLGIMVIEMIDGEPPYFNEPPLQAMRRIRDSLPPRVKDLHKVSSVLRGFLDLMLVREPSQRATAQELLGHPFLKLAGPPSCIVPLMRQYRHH
Effect on: enzyme activity
Mode: inhibitor
Concentration: 0.5 µM
Relative to: control
| SMILES | remaining activity [%] |
| --- | --- |
| c1ccc2c(-c3ccncc3)c[nH]c2c1 | 93.8 |
| O=C1Nc2ccc(Br)cc2/C1=C/c1cc2c([nH]1)CCCC2 | 85.4 |
| N#Cc1cnc2cnc(NCc3cccnc3)cc2c1Nc1ccc(F)c(Cl)c1 | 98.3 |
| c1ccc(-c2n[nH]c3c2oc2ccccc23)cc1 | 70.9 |
| O=C1NC(=O)c2c1c1c3ccccc3[nH]c1c1[nH]c3cc(Br)ccc3c21 | 96.7 |
| Oc1cccc(-c2nc(N3CCOCC3)c3oc4ncccc4c3n2)c1 | 92.8 |
| COc1ccc(COc2ccc(Cc3cnc(N)nc3N)cc2OC)cc1 | 103 |
| Cc1ccc(S(=O)(=O)/C=C/C#N)cc1 | 100 |
| COc1ccc2c(c1)c(C1=C(c3c[nH]c4ccccc34)C(=O)NC1=O)cn2CCCN(C)C | 67.6 |
| Cc1cc(Nc2cc(N3CCN(C)CC3)nc(Sc3ccc(NC(=O)C4CC4)cc3)n2)[nH]n1 | 91.7 |
| CCCCc1c(-c2ccc(OC)cc2)[nH]c2nccnc12 | 88.1 |
| O=C(c1cc2cc(O)ccc2[nH]1)c1cc2cc(O)ccc2[nH]1 | 85.3 |
| CCCNC(=O)Nc1ccc(Oc2ncnc3cc(OC)c(OC)cc23)cc1Cl | 84.5 |
| O=c1cc(N2CCOCC2)oc2c(-c3ccccc3)cccc12 | 104 |
| O=Nc1c(-c2c(O)[nH]c3cc(Br)ccc23)[nH]c2ccccc12 | 104 |
| CN1CCN(c2ccc3nc(-c4c(N)c5c(F)cccc5[nH]c4=O)[nH]c3c2)CC1 | 82.7 |
| COc1cccc(-c2cc(=O)c3ccccc3o2)c1N | 99.7 |
| O=C1Cc2c([nH]c3ccc(Br)cc23)-c2ccccc2N1 | 85.1 |
| O=C1NC(=O)c2c1c1c3ccccc3[nH]c1n1cncc21 | 80 |

Series 2
Compound: CSc1cccnc1N1CCN(Cc2nc3ccccc3[nH]2)CC1
Method: competition with immobilised ligand
Concentration: 1 µM
| target | assay | remaining binding |
| --- | --- | --- |
| PAK1 (Homo sapiens, UniProt Q13153) | cell-free assay | 100% |
| PIP4K2B (Homo sapiens, UniProt P78356) | cell-free assay | 100% |
| DCLK2 (Homo sapiens, UniProt Q8N568) | cell-free assay | 100% |
| GAK (Homo sapiens, UniProt O14976) | cell-free assay | 99% |
| KIT (Homo sapiens, UniProt P10721, D816H) | cell-free assay | 100% |
| FLT3 (Homo sapiens, UniProt P36888) | cell-free assay | 100% |
| VRK2 (Homo sapiens, UniProt Q86Y07) | cell-free assay | 75% |
| ERBB4 (Homo sapiens, UniProt Q15303) | cell-free assay | 83% |
| CAMK2B (Homo sapiens, UniProt Q13554) | cell-free assay | 100% |
| ACVR2B (Homo sapiens, UniProt Q13705) | binding | 98% |
| TNNI3K (Homo sapiens, UniProt Q59H18) | cell-free assay | 100% |
| EGFR (Homo sapiens, UniProt P00533, A750P/del747-749) | cell-free assay | 100% |
| EGFR (Homo sapiens, UniProt P00533, L858R/T790M) | cell-free assay | 91% |
| EIF2AK2 (Homo sapiens, UniProt P19525) | cell-free assay | 100% |
| Myosin-IIIa (MYO3A, Homo sapiens, UniProt Q8NEV4) | binding | 100% |
| MYLK2 (Homo sapiens, UniProt Q9H1R3) | binding | 100% |
| PKN2 (Homo sapiens, UniProt Q16513) | cell-free assay | 62% |
| ALK (Homo sapiens, UniProt Q9UM73, C1156Y) | cell-free assay | 93% |
| IRAK3 (Homo sapiens, UniProt Q9Y616) | cell-free assay | 94% |
| CSNK1E (Homo sapiens, UniProt P49674) | cell-free assay | 91% |
| STK39 (Homo sapiens, UniProt Q9UEW8) | cell-free assay | 100% |
| RIOK3 (Homo sapiens, UniProt O14730) | cell-free assay | 100% |
| EGFR (Homo sapiens, UniProt P00533, del747-752/P753S) | cell-free assay | 100% |
| CDK14 (Homo sapiens, UniProt O94921) | cell-free assay | 100% |
| FLT3 (Homo sapiens, UniProt P36888, D835V) | cell-free assay | 84% |

Series 3
SMILES: CC(C)S(=O)(=O)c1ccc2nccc(Nc3ccc4sc(C5CCCC5)nc4c3)c2c1
Effect on: enzyme activity
Mode: inhibitor
Concentration: 1 µM
| target | activity vs control [%] |
| --- | --- |
| TEC (Homo sapiens, UniProt P42680) | 100 |
| SIK2 (Homo sapiens, UniProt Q9H0K1) | 94 |
| EPHA8 (Homo sapiens, UniProt P29322) | 100 |
| LTK (Homo sapiens, UniProt P29376) | 104 |
| FRK (Homo sapiens, UniProt P42685) | 72 |
| NEK5 (Homo sapiens, UniProt Q6P3R8) | 92.5 |
| NEK4 (Homo sapiens, UniProt P51957) | 95 |
| EIF2AK3 (Homo sapiens, UniProt Q9NZJ5) | 99 |
| MTOR (Homo sapiens, UniProt P42345) | 94.5 |
| FGR (Homo sapiens, UniProt P09769) | 90.5 |
| KIT (Homo sapiens, UniProt P10721) | 80 |
| RIPK1 (Homo sapiens, UniProt Q13546) | 87 |
| MAP2K6 (Homo sapiens, UniProt P52564) | 92 |
| MAP4K3 (Homo sapiens, UniProt Q8IVH8) | 95 |
| PRKD2 (Homo sapiens, UniProt Q9BZL6) | 100 |
| EPHB1 (Homo sapiens, UniProt P54762) | 99 |
| IKBKB (Homo sapiens, UniProt O14920) | 115 |

Series 4
Target: Calcium/calmodulin-dependent protein kinase type II subunit alpha (CAMK2A, Homo sapiens, UniProt Q9UQM7)
UniProt Q9UQM7, sequence (whole entry, looked up): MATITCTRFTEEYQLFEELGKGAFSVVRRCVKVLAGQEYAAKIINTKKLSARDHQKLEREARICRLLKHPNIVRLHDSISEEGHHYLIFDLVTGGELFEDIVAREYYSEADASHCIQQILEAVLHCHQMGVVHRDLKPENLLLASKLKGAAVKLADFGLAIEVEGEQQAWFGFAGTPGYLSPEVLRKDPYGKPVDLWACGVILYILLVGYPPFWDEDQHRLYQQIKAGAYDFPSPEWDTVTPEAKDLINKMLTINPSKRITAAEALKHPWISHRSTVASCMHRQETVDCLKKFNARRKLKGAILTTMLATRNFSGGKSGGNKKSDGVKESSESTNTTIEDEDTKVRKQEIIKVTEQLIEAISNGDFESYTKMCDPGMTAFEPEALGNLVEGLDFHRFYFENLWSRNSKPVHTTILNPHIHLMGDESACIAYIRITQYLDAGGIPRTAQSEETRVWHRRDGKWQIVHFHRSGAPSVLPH
Effect on: enzyme activity
Mode: inhibitor
Concentration: 10 µM
| Structure (SMILES) | inhibition [%] |
| --- | --- |
| O=C(O)CC(=O)OC[C@H]1O[C@@H](Oc2c(-c3ccc(O)c(O)c3)oc3cc(O)cc(O)c3c2=O)[C@H](O)[C@@H](O)[C@@H]1O | 0 |
| CC(=O)OC(C)C(C)C(=O)OC[C@@]12[C@H]3C[C@]4(C)C(=CC[C@@H]5[C@@]6(C)CC[C@H](O[C@@H]7O[C@H](C(=O)O)[C@@H](O[C@@H]8O[C@H](CO)[C@@H](O)[C@H](O)[C@H]8O)[C@H](O)[C@H]7O[C@@H]7OC[C@@H](O)[C@H](O)[C@H]7O)[C@@](C)(CO)[C@@H]6CC[C@]54C)[C@@H]1CC(C)(C)[C@H](O3)[C@@H]2O (some centres unmarked) | -14 |
| Cc1[nH]ccc2c1[nH]c1cc(=O)ccc12 | 0 |
| C=CC[N+]1([C@H]2C[C@H]3[C@@H]4CC[C@H]5C[C@H](OC(C)=O)[C@@H](N6CCCCC6)C[C@]5(C)[C@H]4CC[C@]3(C)[C@H]2OC(=O)CC)CCCCC1 | 3 |
| O=C(O)c1c[nH]c(=O)[nH]c1=O | 9 |
| Cc1ccc(C(=O)O)cc1 | -26 |
| CC(C)CCCO | 29 |

For quick reference, copied from above (series 1):
| SMILES | remaining activity [%] |
| --- | --- |
| COc1ccc2c(c1)c(C1=C(c3c[nH]c4ccccc34)C(=O)NC1=O)cn2CCCN(C)C | 67.6 |
| Cc1cc(Nc2cc(N3CCN(C)CC3)nc(Sc3ccc(NC(=O)C4CC4)cc3)n2)[nH]n1 | 91.7 |
| CCCCc1c(-c2ccc(OC)cc2)[nH]c2nccnc12 | 88.1 |
| O=C(c1cc2cc(O)ccc2[nH]1)c1cc2cc(O)ccc2[nH]1 | 85.3 |
| CCCNC(=O)Nc1ccc(Oc2ncnc3cc(OC)c(OC)cc23)cc1Cl | 84.5 |
| O=c1cc(N2CCOCC2)oc2c(-c3ccccc3)cccc12 | 104 |
